Measured values pooled from the literature.
Numbered parts are unrelated; each lists some results of a single study.

Series 1 — method: universal PBM; molecule type: double-stranded DNA, one strand shown; sample: in vitro; tested at: not given; reading: higher = stronger binding; quantity: E-score
Target: Sal-like protein 4, full length isoform B (SALL4, Homo sapiens, UniProt Q9UJQ4-2, residues 1-616)
Setting: 8-mer, flanks averaged, mean of replicates
Oligonucleotide = TTCCGCAA; value = 0.00577
Oligonucleotide = CGAAACTA; value = 0.111
Oligonucleotide = AGCCTTAC; value = -0.156
Oligonucleotide = CTGGATTA; value = 0.131
Oligonucleotide = ATTTTTGC; value = 0.312
Oligonucleotide = CCTACACA; value = 0.0572
Oligonucleotide = CCATCCGA; value = 0.00496
Oligonucleotide = AAACATTG; value = 0.198

Series 2 — method: protein binding microarray; molecule type: double-stranded DNA, one strand shown; sample: in vitro; tested at: not given; relative to: not given; reading: higher = stronger binding; quantity: E-score
Target: Histone acetyltransferase KAT6A, both winged helices, GST fusion (KAT6A, Homo sapiens, UniProt Q92794, residues 1-181)
Setting: 8-mer, flanks averaged, mean of 2 arrays, mostly near background
Residues (chain): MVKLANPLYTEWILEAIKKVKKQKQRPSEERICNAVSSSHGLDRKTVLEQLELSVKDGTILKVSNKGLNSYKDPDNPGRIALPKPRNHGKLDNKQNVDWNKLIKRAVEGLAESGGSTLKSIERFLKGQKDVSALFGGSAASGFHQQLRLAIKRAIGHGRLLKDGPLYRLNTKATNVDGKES
Oligonucleotide = CGCGCTCA; value = 0.326
Oligonucleotide = GATTGTTA; value = -0.117
Oligonucleotide = AATGTAAA; value = 0.0307
Oligonucleotide = CCAAGTCG; value = -0.0406
Oligonucleotide = GTTTGCGA; value = 0.0945
Oligonucleotide = ATAGTTTC; value = -0.146
Oligonucleotide = CAGTCTTA; value = 0.118
Oligonucleotide = CCCTACTC; value = -0.136

Series 3 — read-out: enzyme activity; mode: inhibitor; tested at: 20 µM; quantity: inhibition
Target: Replicase polyprotein 1ab, polymerase (rep, Severe acute respiratory syndrome coronavirus 2, UniProt P0DTD1)
SMILES = CN1CCN(CCCCN2C(=O)CN(/N=C/c3ccc(-c4ccc(Cl)cc4)o3)C2=O)CC1; value = 1.07%
SMILES = CC[N+](C)(CC)CCOC(=O)C(O)(c1ccccc1)C1CCCCC1 (centres unmarked); value = -3.54%
SMILES = COc1ccc(Nc2ccn(-c3ccccc3)n2)cc1; value = -14%
SMILES = CCCc1nc(C(C)(C)O)c(C(=O)O)n1Cc1ccc(-c2ccccc2-c2nnn[nH]2)cc1; value = -4.22%
SMILES = O=C(OCCN1CCOCC1)c1cccnc1Nc1cccc(C(F)(F)F)c1; value = 1.77%
SMILES = COc1cnc(-c2ccc(Cn3c(CC(C)(C)C(=O)O)c(SC(C)(C)C)c4cc(OC[C@@H]5Cc6ccccc6N5C(C)=O)ccc43)cc2)nc1; value = -3.77%
SMILES = O=C1Nc2ccc(I)cc2/C1=C/c1cc(Br)c(O)c(Br)c1; value = 6.81%
SMILES = NS(=O)(=O)Nc1ncnc(OCCOc2ncc(Br)cn2)c1-c1ccc(Br)cc1; value = -2.94%
SMILES = CC[C@@H](c1cccc(O)c1)[C@@H](C)CN(C)C; value = -2.45%
SMILES = O=C1C2CC3CC1CC(O)(C3)C2; value = 0.92%
SMILES = O=C1Nc2ccccc2/C1=C1/Nc2ccccc2C1=O; value = 1.35%
SMILES = Cn1c(CNc2ccc(C(=N)N)cc2)nc2cc(C(=O)N(CCC(=O)O)c3ccccn3)ccc21; value = 3.98%
SMILES = Cc1c(Cc2ccc3ccccc3n2)c2cc(F)ccc2n1CC(=O)O; value = 1.19%
SMILES = OC[C@@H](O)[C@@H](O)[C@H](O)[C@H](O)CO; value = 1.07%
SMILES = Cc1cc(CN2CCN(c3c(Br)cnc4nc(-c5ccc(N6CCN(C)CC6)cc5)[nH]c34)CC2)no1; value = -1.83%
SMILES = O=C(NCCCN1CCOCC1)c1ccc(Cl)cc1; value = 0.93%
SMILES = Clc1ccc(N/N=C(\c2ccccc2)c2ccccn2)nc1; value = 3.01%
SMILES = Cc1[nH]c(/C=C2\C(=O)Nc3ccc(F)cc32)c(C)c1C(=O)NC[C@H](O)CN1CCOCC1; value = 11.4%
SMILES = Cc1ccc(C(=O)c2cc(O)c(O)c([N+](=O)[O-])c2)cc1; value = 63%
SMILES = CC(C)(C(=O)c1cccnc1)c1cccnc1; value = -1.14%
SMILES = CC(C)C(=O)c1c(C(C)C)nn2ccccc12; value = 0.03%
SMILES = CC1(C)C(=O)N(c2ccc(C#N)c(C(F)(F)F)c2)C(=O)N1CCCCO; value = -10.6%
SMILES = Fc1ccc(-c2cncc(CN3CCN(c4cccc5c4OCCO5)CC3)c2)cc1; value = -5.16%
SMILES = O=C(O)CCC(=O)C(=O)O; value = 4.08%
SMILES = CC(=O)Nc1ccccc1; value = 18.6%

Series 4 — cell line: HEK-293T; read-out: pseudovirus infection; method: FDA-approved drug library screen; organism: VSV pseudotyped with SARS-CoV-2 spike; tested at: 10 µM; time: 16 h; relative to: vehicle-treated; quantity: GFP-positive cells
SMILES = CC(C)c1nc(CN(C)C(=O)N[C@H](C(=O)N[C@@H](Cc2ccccc2)C[C@H](O)[C@H](Cc2ccccc2)NC(=O)OCc2cncs2)C(C)C)cs1; value = 48.3%
SMILES = COc1cc2c(cc1OC)C1CC(=O)C(CC(C)C)CN1CC2 (centres unmarked); value = 76.4%
SMILES = C[C@@H]1O[C@@H](OC[C@H]2O[C@@H](Oc3c(-c4ccc(O)c(O)c4)oc4cc(O)cc(O)c4c3=O)[C@H](O)[C@@H](O)[C@@H]2O)[C@H](O)[C@H](O)[C@H]1O; value = 108%

Series 5 — method: protein-binding microarray; molecule type: double-stranded DNA, one strand shown; sample: in vitro; tested at: 2540 nM top; setting: 60-bp whole probe; with: salmon DNA 0.4 mg/ml; relative to: random background probes; reading: higher = stronger binding; quantity: fitted relative affinity; shared flanks, not repeated: GCCTAGCAC … GTCTTGATTCGCTTGACGCTGCTG
Target: Interferon regulatory factor 3, full length, phosphomimetic (IRF3, Homo sapiens, UniProt Q14653, residues 1-427, S386D/S396D/S398D/S402D/T404D/S405D)
Construct (chain): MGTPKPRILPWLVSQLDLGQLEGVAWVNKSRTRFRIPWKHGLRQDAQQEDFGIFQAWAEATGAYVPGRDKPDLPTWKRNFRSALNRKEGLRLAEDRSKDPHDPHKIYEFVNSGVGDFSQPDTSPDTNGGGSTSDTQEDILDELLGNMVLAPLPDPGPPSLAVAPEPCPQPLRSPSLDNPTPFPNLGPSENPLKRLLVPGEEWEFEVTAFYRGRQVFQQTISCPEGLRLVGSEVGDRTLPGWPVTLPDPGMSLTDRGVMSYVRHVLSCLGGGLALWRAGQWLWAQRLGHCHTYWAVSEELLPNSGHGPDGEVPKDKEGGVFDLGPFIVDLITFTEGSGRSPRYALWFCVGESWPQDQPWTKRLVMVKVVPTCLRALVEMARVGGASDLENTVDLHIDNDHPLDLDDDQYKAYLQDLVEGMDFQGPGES
Oligonucleotide = TTAGGTTTCTGGTATCGGTTAGTGCTA; value = 2.7 z-score
Oligonucleotide = TTAGGTATCGGGTATCGGTTAGTGCTA; value = 2 z-score
Oligonucleotide = GACGAACTGGGCTTTCGAGACGTGCTA; value = -0.608 z-score
Oligonucleotide = GACGATTTCACTCTCGAGACGTGCTAG; value = 3.03 z-score
Oligonucleotide = TTAGAACTGGGGATTCGATTAGTGCTA; value = -0.469 z-score
Oligonucleotide = TTCTATCTCTGTTTTTGCTTGTGCTAG; value = 1.03 z-score
Oligonucleotide = TTAGATTTTGGGACTGGATTAGTGCTA; value = -0.321 z-score
Oligonucleotide = GACGATCTCCTACTGCTGACGTGCTAG; value = 0.808 z-score

Other studies, line by line
SMILES = CC(C)C[C@@H](C=O)NC(=O)[C@H](CC(C)C)NC(=O)[C@H](CC(C)C)NC(=O)OCc1ccccc1; organism = SARS-CoV-2; assay = viral RNA reduction; test system = Vero E6; quantity = EC50; value = 100 nM

Some of these lines once more (series 5):
Oligonucleotide = TTAGAACTGGGGATTCGATTAGTGCTA; value = -0.469 z-score
Oligonucleotide = TTCTATCTCTGTTTTTGCTTGTGCTAG; value = 1.03 z-score
Oligonucleotide = TTAGATTTTGGGACTGGATTAGTGCTA; value = -0.321 z-score
Oligonucleotide = GACGATCTCCTACTGCTGACGTGCTAG; value = 0.808 z-score
